Measurements collected from several papers.
Compare with care: the assays were run in different laboratories. ± gives the spread as reported.

The tissue uptake of `CC[C@H](C)[C@H](NC(=O)[C@H](CCCCN)NC(=O)CNC(=O)[C@H](CC(C)C)NC(=O)[C@H](Cc1ccccc1)NC(=O)[C@H](CCCCN)NC(=O)[C@H](CO)NC(=O)[C@H](Cc1ccccc1)NC(=O)[C@H](Cc1c[nH]c2ccccc12)NC(=O)[C@H](CCC(N)=O)NC(=O)[C@@H](NC(=O)[C@H](Cc1ccccc1)NC(=O)CCCCCNC(=O)CN1CCN(CC(=O)O)CCN(CC(=O)O)CCN(CC(=O)O)CC1)C(C)C)C(=O)N[C@@H](CCC(=O)O)C(=O)N1CCC[C@H]1C(=O)N[C@@H](CC(=O)O)C(=O)N[C@H](C(=O)N[C@@H](CO)C(=O)N[C@@H](CCC(N)=O)C(=O)N[C@H](C(=O)N[C@@H](CCC(N)=O)C(=O)N[C@@H](CC(=O)O)C(=O)N1CCC[C@H]1C(=O)N[C@@H](CC(N)=O)C(=O)N[C@@H](CC(=O)O)C(=O)N[C@@H](CCC(N)=O)C(=O)N[C@@H](Cc1ccc(O)cc1)C(=O)N[C@@H](CCC(=O)O)C(=O)N1CCC[C@H]1C(=O)N[C@@H](Cc1ccccc1)C(=O)O)C(C)C)C(C)C` [copper-64 labelled] is reported as 2.73 ± 0.3 %ID/g (C57BL/6 mice, male, tumour-free, heart; 24 h).
`CNC(=O)C[C@H](Cc1ccc(F)cc1)NC(=O)[C@@H](Cc1ccc(Cl)cc1Cl)NC(=O)[C@H](N)Cc1ccccc1C#N` has a microsomal CLint of 697 µL/min/mg (metabolic stability; human, liver microsomes; 1 µM).
`Cc1ccccc1-c1ccc(-c2nc(-c3ccc(CN(C)CCCC(=O)O)c([18F])c3)no2)cc1C(F)(F)F` gave a tracer uptake of 0.3 %ID/g (rat, spleen; 1 h).
The concentration of `CCc1nn(C)c2nc(-c3ccc(C(=O)O)cc3)nc(NCc3ccccc3)c12` is reported as 4.17 ng/mL (male CD-1 mouse, plasma; intravenous, 1 mg/kg, 6 h).
With `CC(C)=CCC/C(C)=C/CCn1cc(CC(P(=O)(O)O)P(=O)(O)O)nn1` the AUC(0-inf) was 1500 ± 119 ng·h/mL (CD-1 mouse, plasma; intravenous, 0.5 mg/kg, single dose).
For `CCCCCCCCCCCCCCCC(=O)N[C@@H](CCC(=O)NCCOCCOCCC(=O)NCCOCCOCCC(=O)NCCCC[C@H](NC(=O)[C@H](CC(=O)O)NC(=O)[C@H](CC(C)C)NC(=O)[C@H](Cc1ccc(O)cc1)NC(=O)[C@H](CCCCN)NC(=O)[C@H](CO)NC(=O)[C@H](Cc1ccc(O)cc1)NC(=O)[C@H](CC(=O)O)NC(=O)[C@H](CO)NC(=O)[C@@H](NC(=O)[C@H](Cc1ccccc1)NC(=O)[C@@H](NC(=O)CNC(=O)[C@H](CCC(N)=O)NC(=O)[C@@H](CO)NC(=O)[C@@H](N)Cc1c[nH]cn1)[C@@H](C)O)[C@@H](C)O)C(=O)N[C@@H](CCCNC(=N)N)C(=O)N[C@@H](CCCNC(=N)N)C(=O)N[C@@H](C)C(=O)N[C@@H](CCC(N)=O)C(=O)N[C@@H](CC(=O)O)C(=O)N[C@@H](Cc1ccccc1)C(=O)N[C@H](C(=O)N[C@@H](CCC(N)=O)C(=O)N[C@@H](Cc1c[nH]c2ccccc12)C(=O)N[C@@H](CC(C)C)C(=O)N[C@@H](CC(C)C)C(=O)N[C@@H](CC(N)=O)C(=O)N[C@H](C(=O)NCC(=O)NCC(=O)N1CCC[C@H]1C(=O)N[C@@H](CO)C(=O)N[C@@H](CO)C(=O)NCC(=O)N[C@@H](C)C(=O)N1CCC[C@H]1C(=O)N1CCC[C@H]1C(=O)N1CCC[C@H]1C(=O)N[C@@H](CO)C(N)=O)[C@@H](C)O)C(C)C)C(=O)O`, the half-life was 1.94 ± 0.305 h (rhesus monkey, both sexes, plasma; subcutaneous, 20 µg/kg, multiple doses, day 7).
`CC(C)C[C@@H](NC(=O)[C@@H](CCCNC(=N)N)NC(=O)[C@@H](Cc1c[nH]cn1)NC(=O)[C@@H](Cc1c[nH]c2ccccc12)NC(=O)[C@@H](Cc1c[nH]cn1)NC(=O)[C@@H](Cc1ccccc1)NC(=O)[C@H](NC(=O)[C@@H](Cc1ccc(O)cc1)NC(=O)CNC(=O)CNC(=O)CCOCCOCCOCCNC(=O)CN1CCN(CC(=O)O)CCN(CC(=O)O)CC1)[C@H](C)O)C(=O)N[C@H](CC(N)=O)C(=O)N1CCC[C@@H]1C(=O)O` [gallium-68 labelled] — result for “organ absorbed dose”: 0.0103 ± 0.0002 mSv/MBq (OLINDA/EXM; adult male human, heart wall; extrapolated from C57BL/6 mice).
`C#Cc1c(F)ccc2cc(O)cc(-c3ncc4c(N5CC6CCC(C5)N6C(=O)OC(C)OC(=O)c5ccccc5)nc(OC[C@@]56CCCN5C[C@H](F)C6)nc4c3F)c12` (stereo partly shown) has a t1/2 of 0.18 h (item: prodrug; mouse whole blood; 1 µM).
`COc1ccc(CNc2ccc3c(c2)S(=O)(=O)C=C3)cc1` has a plateletcrit of 7.04 mL/L (male C57BL/6 mice, blood; intraperitoneal, 5 mg/kg, day 8, group average).
`CSCC[C@H](N)C(=O)N[C@@H](C)C(=O)N[C@@H](CCCNC(=N)N)C(=O)N[C@@H](CCCNC(=N)N)C(=O)N[C@@H](CC(=O)O)C(=O)N[C@@H](CCCCN)C(=O)N[C@H](C(=O)N[C@@H](CC(=O)O)C(=O)N[C@@H](Cc1ccccc1)C(=O)N[C@@H](C)C(=O)N[C@@H](CCCNC(=N)N)C(=O)N[C@@H](CCCNC(=N)N)C(=O)N[C@@H](CCCNC(=N)N)C(=O)N[C@@H](CCCNC(=N)N)C(=O)NCCCCCC(=O)NCCCCC(NC(=O)CCCCCNC(=O)[C@H](CCCNC(=N)N)NC(=O)[C@H](CCCNC(=N)N)NC(=O)[C@H](CCCNC(=N)N)NC(=O)[C@H](CCCNC(=N)N)NC(=O)[C@H](C)NC(=O)[C@H](Cc1ccccc1)NC(=O)[C@H](CC(=O)O)NC(=O)[C@@H](NC(=O)[C@H](CCCCN)NC(=O)[C@H](CC(=O)O)NC(=O)[C@H](CCCNC(=N)N)NC(=O)[C@H](CCCNC(=N)N)NC(=O)[C@H](C)NC(=O)[C@@H](N)CCSC)[C@@H](C)O)C(=O)NCCCCC(NC(=O)C(CCCCNC(=O)CCCCCNC(=O)[C@H](CCCNC(=N)N)NC(=O)[C@H](CCCNC(=N)N)NC(=O)[C@H](CCCNC(=N)N)NC(=O)[C@H](CCCNC(=N)N)NC(=O)[C@H](C)NC(=O)[C@H](Cc1ccccc1)NC(=O)[C@H](CC(=O)O)NC(=O)[C@@H](NC(=O)[C@H](CCCCN)NC(=O)[C@H](CC(=O)O)NC(=O)[C@H](CCCNC(=N)N)NC(=O)[C@H](CCCNC(=N)N)NC(=O)[C@H](C)NC(=O)[C@@H](N)CCSC)[C@@H](C)O)NC(=O)CCCCCNC(=O)[C@H](CCCNC(=N)N)NC(=O)[C@H](CCCNC(=N)N)NC(=O)[C@H](CCCNC(=N)N)NC(=O)[C@H](CCCNC(=N)N)NC(=O)[C@H](C)NC(=O)[C@H](Cc1ccccc1)NC(=O)[C@H](CC(=O)O)NC(=O)[C@@H](NC(=O)[C@H](CCCCN)NC(=O)[C@H](CC(=O)O)NC(=O)[C@H](CCCNC(=N)N)NC(=O)[C@H](CCCNC(=N)N)NC(=O)[C@H](C)NC(=O)[C@@H](N)CCSC)[C@@H](C)O)C(N)=O)[C@@H](C)O` (stereo partly shown) — result for “mean tissue distribution”: 5.49% (C57BL/6 mouse female, liver; dose not given, 6 h; relative to: total).
Under “uptake in stomach with contents”, `N#[11C]c1ccc(-c2csc(NN=C3CCCC3)n2)cc1` is recorded as 2.42 ± 0.52 %ID/g (C57BL/6 mouse, male; intravenous, 3 MBq, 1 min).
`C/C(=N\OCCCN1CCCCC1)c1ccc(C(F)(F)F)cc1` gave an AUC(0-t) of 3280 ± 988 ng·h/mL (mouse, plasma; oral, 50 mg/kg twice daily, day 7).
`O=C1NC2(CC2)COc2ncc(F)cc2[C@H]2COCCN2c2ccn3ncc1c3n2` has a haematocrit of 39.7 ± 5.1% (Sprague-Dawley rats, female, blood; oral, 20 mg/kg/day, end of treatment, 4-week subacute toxicity).
`C(#Cc1cncc(OC[C@@H]2CCN2)c1)c1ccccc1` has a concentration of 210 ng/mL (male Sprague-Dawley rat, plasma; oral, 75 mg/kg, 9 h).
The AUC(0-inf) of `CC[C@H](C)[C@H](NC(=O)[C@H](CCCN)NC(=O)[C@H](CCCNC(=N)N)NC(=O)[C@@H]1CCCN1C(=O)[C@@H]1CCCN1C(=O)[C@H](CCCNC(=N)N)NC(=O)[C@@H]1CCCN1C(=O)[C@H](CCCNC(=N)N)NC(=O)[C@@H]1CCCN1C(=O)[C@H](CC(C)C)NC(=O)[C@H](Cc1ccc(O)cc1)NC(=O)[C@@H]1CCCN1C(=O)[C@@H]1CCCN1C(=O)[C@H](CCCCN)NC(=O)[C@H](CC(=O)O)NC(=O)[C@@H](N)C(C)C)C(=O)N[C@@H](Cc1ccc(O)cc1)C(=O)N[C@@H](CC(N)=O)C(=O)N[C@@H](CCCN)C(N)=O` is reported as 5500 ng·h/mL (competitive ELISA; mouse CD-1, female, plasma; subcutaneous, 4.34 µmol/kg).
`N=C(N)NCCC[C@H](NC(=O)[C@H](CCCNC(=N)N)NC(=O)[C@H](CCCNC(=N)N)NC(=O)[C@H](CCC(N)=O)NC(=O)[C@H](CCCNC(=N)N)NC(=O)[C@H](CCCNC(=N)N)NC(=O)[C@H](CCCCN)NC(=O)[C@H](CCCCN)NC(=O)[C@H](CCCNC(=N)N)NC(=O)CNC(=O)[C@H](Cc1ccc(O)cc1)NC(=O)[C@H](Cc1ccccc1)NC(=O)[C@H](Cc1ccccc1)NC(=O)[C@H](Cc1ccccc1)NC(=O)OCC1c2ccccc2-c2ccccc21)C(=O)O` gave a health score of 5 (C57BL/6 mice; intraperitoneal, 20 mg/kg, 24 h; direction not given).
Under “fractional magnesium excretion”, `C=C/C=C/C[C@@H](C)[C@@H](O)[C@H]1C(=O)N[C@@H](CC)C(=O)N(C)CC(=O)N(C)[C@@H](CC(C)C)C(=O)N[C@@H](C(C)C)C(=O)N(C)[C@@H](CC(C)C)C(=O)N[C@@H](C)C(=O)N[C@H](C)C(=O)N(C)[C@@H](CC(C)C)C(=O)N(C)[C@@H](CC(C)C)C(=O)N(C)[C@@H](C(C)C)C(=O)N1C` is recorded as “no effect” (male Wistar Kyoto rat; intraperitoneal, 0.5 mg/kg/day, day 18; relative to: vehicle).
`CN1Cc2cc(Cl)ccc2-n2c(nnc2C2CCN(c3cccc(F)n3)CC2)C1` gave a concentration of 8.78 ± 1.93 ng/mL (Sprague-Dawley rats male, striatum; intravenous, 0.03 mg/kg, 5 min).
With `CSCC[C@H](NC(=O)CNC(=O)[C@H](CCCCN)NC(=O)[C@H](CC(C)C)NC(=O)[C@@H]1CCCN1C(=O)[C@H](CO)NC(=O)[C@H](Cc1c[nH]cn1)NC(=O)[C@H](Cc1c[nH]c2ccccc12)NC(=O)[C@H](CCCNC(=N)N)NC(=O)[C@H](CC(C)C)NC(=O)[C@H](CCCNC(=N)N)NC(=O)[C@H](Cc1c[nH]c2ccccc12)NC(=O)[C@H](CS)NC(=O)CCCCCNC(=O)CN1CCN(CC(=O)O)CCN(CC(=O)O)CCN(CC(=O)O)CC1)C(=O)O` [copper-64 labelled] the tissue uptake was 6.23 ± 0.41 %ID/g (PET; C57BL/6J mice, B16-F10 tumour, liver; intravenous, 18 h).

Some of these lines once more:
Under “fractional magnesium excretion”, `C=C/C=C/C[C@@H](C)[C@@H](O)[C@H]1C(=O)N[C@@H](CC)C(=O)N(C)CC(=O)N(C)[C@@H](CC(C)C)C(=O)N[C@@H](C(C)C)C(=O)N(C)[C@@H](CC(C)C)C(=O)N[C@@H](C)C(=O)N[C@H](C)C(=O)N(C)[C@@H](CC(C)C)C(=O)N(C)[C@@H](CC(C)C)C(=O)N(C)[C@@H](C(C)C)C(=O)N1C` is recorded as “no effect” (male Wistar Kyoto rat; intraperitoneal, 0.5 mg/kg/day, day 18; relative to: vehicle).
For `CCCCCCCCCCCCCCCC(=O)N[C@@H](CCC(=O)NCCOCCOCCC(=O)NCCOCCOCCC(=O)NCCCC[C@H](NC(=O)[C@H](CC(=O)O)NC(=O)[C@H](CC(C)C)NC(=O)[C@H](Cc1ccc(O)cc1)NC(=O)[C@H](CCCCN)NC(=O)[C@H](CO)NC(=O)[C@H](Cc1ccc(O)cc1)NC(=O)[C@H](CC(=O)O)NC(=O)[C@H](CO)NC(=O)[C@@H](NC(=O)[C@H](Cc1ccccc1)NC(=O)[C@@H](NC(=O)CNC(=O)[C@H](CCC(N)=O)NC(=O)[C@@H](CO)NC(=O)[C@@H](N)Cc1c[nH]cn1)[C@@H](C)O)[C@@H](C)O)C(=O)N[C@@H](CCCNC(=N)N)C(=O)N[C@@H](CCCNC(=N)N)C(=O)N[C@@H](C)C(=O)N[C@@H](CCC(N)=O)C(=O)N[C@@H](CC(=O)O)C(=O)N[C@@H](Cc1ccccc1)C(=O)N[C@H](C(=O)N[C@@H](CCC(N)=O)C(=O)N[C@@H](Cc1c[nH]c2ccccc12)C(=O)N[C@@H](CC(C)C)C(=O)N[C@@H](CC(C)C)C(=O)N[C@@H](CC(N)=O)C(=O)N[C@H](C(=O)NCC(=O)NCC(=O)N1CCC[C@H]1C(=O)N[C@@H](CO)C(=O)N[C@@H](CO)C(=O)NCC(=O)N[C@@H](C)C(=O)N1CCC[C@H]1C(=O)N1CCC[C@H]1C(=O)N1CCC[C@H]1C(=O)N[C@@H](CO)C(N)=O)[C@@H](C)O)C(C)C)C(=O)O`, the half-life was 1.94 ± 0.305 h (rhesus monkey, both sexes, plasma; subcutaneous, 20 µg/kg, multiple doses, day 7).
